Assay results pooled from the literature.
Values joined by “and” are separate records of one study, mostly repeats; a detail may differ. Numbers after ± are the reported error.
Cell line: A549

| Structure (SMILES) | assay | conditions | IC50 |
| --- | --- | --- | --- |
| COCC12CN(C)C3C4C(OC)C1C3(C(OC)CC2O)C1CC2(O)C(O)C1C4(O)C(O)C2OC (stereo not drawn) | cell growth or viability, MTT |  | 8.92 µM |
| C=CC[P](c1ccccc1)(c1ccccc1)[Pt]([S]c1ncccn1)([S]c1ncccn1)[P](CC=C)(c1ccccc1)c1ccccc1 | cell growth or viability, MTT |  | 16 µM |
| C#CCCCC[C@H](C)C[C@@H](C)C(=O)N(C)[C@H](C(=O)N(C)[C@@H](Cc1ccccc1)C(=O)N1CCC[C@H]1C(=O)N1CCC[C@H]1C(C)=O)C(C)C | cell growth or viability, SRB |  | 0.2 µM |
| COc1ccc2c(c1O)CCCC=C2c1cc(OC)c(OC)c(OC)c1 | cell growth or viability, SRB |  | 2.7e-05 µM |
| COCC12CN(C)C3C4C(OC)C1C3(C(OC)CC2O)C1CC2(O)C(OC)C(O)C4(OC(C)=O)C1C2OC(=O)c1ccccc1 (stereo not drawn) | cell growth or viability, MTT |  | 13 µM |
| C[C@H]1O[C@@H](O[C@H]2CC[C@@]3(C)[C@H](CC[C@@H]4[C@@H]3C[C@@H](O)[C@]3(C)[C@@H](C5=CC(=O)OC5)CC[C@]43O)C2)C[C@H](O)[C@@H]1O[C@@H]1O[C@H](CO)[C@@H](O)[C@H](O)[C@H]1O | cell growth or viability, MTT | 48 h | 0.15 µM |
| CC[C@H](C)[C@H](NC(=O)[C@H](CCCCN)NC(=O)[C@@H](NC(=O)[C@H](CCC(N)=O)NC(=O)[C@@H](N)CCCNC(=N)N)[C@@H](C)CC)C(=O)N[C@@H](Cc1c[nH]c2ccccc12)C(=O)N[C@@H](Cc1ccccc1)C(=O)N[C@@H](CCC(N)=O)C(=O)N[C@@H](CC(N)=O)C(=O)N[C@@H](CCCNC(=N)N)C(=O)N[C@@H](CCCNC(=N)N)C(=O)N[C@@H](CCSC)C(=O)N[C@@H](CCCCN)C(=O)N[C@@H](Cc1c[nH]c2ccccc12)C(=O)N[C@@H](CCCCN)C(=O)N[C@@H](CCCCN)C(N)=O | cytotoxicity |  | 60.8 µM |
| CO[C@@H]1[C@@H](O)[C@H](O[C@H]2CC[C@@]3(C)[C@H](CC[C@@H]4[C@@H]3CC[C@]3(C)[C@@H](C5=CC(=O)OC5)[C@@H](O)C[C@]43O)C2)O[C@H](C)[C@@H]1O[C@@H]1O[C@H](CO)[C@@H](O)[C@H](O)[C@H]1O | cell growth or viability, MTT | 48 h | 0.42 µM |
| NC1CCCCC1N.O=C1[O][Pt]([O]C(=O)c2ccc(P(c3ccccc3)c3ccccc3)cc2)([O]C(=O)c2ccc(P(c3ccccc3)c3ccccc3)cc2)[O]C1=O.[Cl][Au].[Cl][Au] | cell growth or viability, resazurin | 72 h | 12.8 µM |
| CC[C@H](C)[C@@H]1NC(=O)[C@H](CCCNC(=N)N)NC(=O)C[C@@H](c2cccc3ccccc23)NC(=O)[C@@H]2CSSC[C@H](NC(=O)C[C@@H](c3cccc4ccccc34)NC(=O)[C@H](CCCNC(=N)N)NC(=O)[C@@H]3CCCN3C(=O)[C@@H]3CCCN3C1=O)C(=O)N[C@@H](Cc1ccccc1)C(=O)N1CCC[C@H]1C(=O)N[C@@H](CC(=O)O)C(=O)N[C@@H](CC(=O)O)C(=O)N[C@@H](Cc1ccccc1)C(=O)N2 | cell growth or viability, ATP luminescence | 72 h | 0.369 µM |
| C[C@H]1O[C@@H](O[C@H]2[C@@H](O)C[C@H](O[C@H]3[C@@H](O)C[C@H](O[C@H]4CC[C@@]5(C)[C@H](CC[C@@H]6[C@@H]5C[C@@H](O)[C@]5(C)[C@@H](C7=CC(=O)OC7)[C@@H](O)C[C@]65O)C4)O[C@@H]3C)O[C@@H]2C)C[C@H](O)[C@@H]1O | cell growth or viability, MTT | 48 h | 0.36 µM |
| CCN1CC2(COC)CCC(OC)C34C5CC6C(OC)C(O)C(O)(C(CC23)C14)C5C6OC(=O)c1ccccc1 (stereo not drawn) | cell growth or viability, MTT |  | 21.3 µM |
| COC(=O)[C@H](C(C)C)N(C)C(=O)[C@H](C(C)C)N(C)C(=O)[C@@H]1CCCN1C(=O)[C@H](C)N(C)C(=O)OC(C)(C)C | cell growth or viability, SRB |  | 3 µM |
| C1=CCCC=CCC1.C1=CCCC=CCC1.[Cl][Hg-]([Cl])[Cl].[Cl][Hg-]([Cl])[Cl].[Pt+][c]1ccccc1P(=Nc1ccccc1)(c1ccccc1)c1ccccc1.[Pt+][c]1ccccc1P(=Nc1ccccc1)(c1ccccc1)c1ccccc1 | cell growth or viability, MTT | 24 h | 0.85 µM |
| CCCCCCCCCCCC[C@@H](O)[C@H]1CC[C@H]([C@H](O)CCCCCCCCCCCCCCC2=C[C@H](C)OC2=O)O1 | cell growth or viability, MTT | 72 h | 5 µM |
| C=CC[P](c1ccccc1)(c1ccccc1)[Pt]([S]c1ccccn1)([S]c1ccccn1)[P](CC=C)(c1ccccc1)c1ccccc1 | cell growth or viability, MTT |  | 4.31 µM |
| OC[C@H]1[C@@H](O)[C@@H](O)CN1Cc1ccccc1 | cell growth or viability, MTS | 72 h | > 200 µM |
| Cc1ccnc(-c2cc(C)ccn2)c1.[C-]#[O+].[C-]#[O+].[C-]#[O+].[Re+] | cell viability |  | 5.2 ± 4 µM |
| CC1OC(OC2CCC3(C)C(CCC4C3CCC3(C)C(C5=CC(=O)OC5)CCC43O)C2)C(O)C(O)C1OC1OC(CO)C(O)C(O)C1O (stereo not drawn) | cell growth or viability, MTT |  | 0.08 µM |
| O=C1[O][Pt]2([OH])([OH])([NH]C3CCCCC3[NH]2)[O]C1=O (stereo not drawn) | cell growth or viability, resazurin | 72 h | > 100 µM |
| CC(=O)[C@@H]1CCCN1C(=O)[C@@H]1CCCN1C(=O)[C@H](Cc1ccccc1)NC(=O)[C@@H](NC(=O)[C@@H](NC(=O)[C@@H](NC(=O)[C@@H]1CCCN1C(=O)[C@H](C)NC(=O)OC(C)(C)C)C(C)C)C(C)C)C(C)C | cell growth or viability, SRB |  | 2 µM |

| Structure (SMILES) | assay | conditions | IC50 |
| --- | --- | --- | --- |
| Cc1[nH]c(=O)c(CNC(=O)c2ccc(C(F)(F)F)nc2)c2c1CCCC2 | cell growth or viability, MTT | 72 h | > 100 µg/mL |
| CC[C@@H](C)[C@@H](NC(=O)[C@@H](Cc1c[nH]c2ccccc12)NC(=O)[C@H](N)CCCNC(=N)N)C(=O)N[C@H](CCSC)C(=O)N[C@H](Cc1ccc(O)cc1)C(=O)N[C@H](Cc1ccccc1)C(N)=O | cell growth or viability, trypan blue |  | 18 µM |
| CC(C)C(O)C(NC(=O)[C@H](Cc1ccc(O)cc1)NC(=O)C(Cc1ccc(O)c(Cl)c1)[N+](C)(C)C)C(=O)N[C@@H](C)C(=O)O (stereo partly drawn) | cell growth or viability |  | > 100 µM |
| C[C@@H]1CCC2[C@@H](C)[C@@H](OCCC[P+](c3ccccc3)(c3ccccc3)c3ccccc3)O[C@@H]3O[C@@]4(C)CCC1[C@@]23OO4 (stereo partly drawn) | cell growth or viability, MTT | 72 h | 0.179 µM |
| CN(C)c1ccc(-c2nc3ccccc3s2)[c]([Pt][O]C(=O)c2ccccc2P(c2ccccc2)c2ccccc2)c1 |  | photoactivated | 0.83 µM and 0.63 µM |
| CCN1CC2(COC)CCC(O)C34C5CC(C(CO)OC)CC5C(=O)C(C(OC)C23)C14 (stereo not drawn) | cell growth or viability, MTT |  | 26.5 µM |
| CCCCCCCCCCCCC(=O)O.O=C1CCCC2C3CCCN4CCCC(CN12)C34 (stereo not drawn) | cell growth or viability, MTT | 24 h | 680 µM |
| C[C@H]1C(OCCCCC[P+](c2ccccc2)(c2ccccc2)c2ccccc2)O[C@@H]2O[C@@]3(C)CCC4[C@H](C)CCC1[C@]42OO3 (stereo partly drawn) | cell growth or viability, MTT | 72 h | 0.279 µM |
| O=C(c1ccccc1O)c1[nH]c(Cl)c(Cl)c1-n1c(C(=O)c2ccccc2O)cc(Cl)c1Cl | cell growth or viability, resazurin | 24 h | 14 µg/mL |
| C[C@H]1C(OCCCCCC[P+](c2ccccc2)(c2ccccc2)c2ccccc2)O[C@@H]2O[C@@]3(C)CCC4[C@H](C)CCC1[C@]42OO3 (stereo partly drawn) | cell growth or viability, MTT | 72 h | 0.187 µM |
| CCOC12C(O)C(OC)C3(O)CC(C1C3OC(=O)c1ccccc1)C13C(OC)CC(O)C4(COC)CN(CC)C1C2C(OC)C43 (stereo not drawn) | cell growth or viability, MTT |  | 20.1 µM |
| C=CC[P](c1ccccc1)(c1ccccc1)[Pt]([S]c1ccc(C(F)(F)F)cn1)([S]c1ccc(C(F)(F)F)cn1)[P](CC=C)(c1ccccc1)c1ccccc1 | cell growth or viability, MTT |  | 12.6 µM |
| CCN1CC2(COC)CCC(O)C34C5CC6C(OC)CC(O)(C(CC23)C14)C5C6O (stereo not drawn) | cell growth or viability, MTT |  | 8.33 µM |
| CC(C)=CCC[C@@](C)(O)[C@H]1CC[C@]2(C)[C@@H]1CC[C@@H]1[C@@]3(C)CCC(=O)C(C)(C)[C@@H]3CC[C@]12C | cell growth or viability, SRB |  | 47.8 µM |
| CC[C@H](C)[C@H](NC(=O)[C@H](CCCCN)NC(=O)[C@H](CCCCN)NC(=O)[C@H](C)NC(=O)[C@H](CC(C)C)NC(=O)[C@H](C)NC(=O)[C@H](C)NC(=O)[C@H](CC(C)C)NC(=O)[C@H](C)NC(=O)[C@H](CCCCN)NC(=O)[C@H](CC(C)C)NC(=O)[C@H](CC(N)=O)NC(=O)[C@@H](NC(=O)[C@H](CCCCN)NC(=O)CNC(=O)[C@H](CC(C)C)NC(=O)[C@H](CC(C)C)NC(=O)[C@H](Cc1ccc(O)cc1)NC(=O)CNC(=O)[C@H](C)NC(=O)[C@H](CO)NC(=O)[C@H](CC(N)=O)NC(=O)[C@H](CC(C)C)NC(=O)[C@@H](NC(=O)[C@H](Cc1c[nH]c2ccccc12)NC(=O)CN)[C@@H](C)O)[C@@H](C)CC)C(=O)N[C@@H](CC(C)C)C(N)=O | cytotoxicity |  | 2.5 µM |
| CCN1CC2(COC)C(O)CC(OC)C34C5CC6(O)C(OC)C(O)C(O)(C5C6OC(=O)c5ccccc5)C(C(OC)C23)C14 (stereo not drawn) | cell growth or viability, MTT |  | 20.6 µM |
| C[C@@H]1O[C@@H](Oc2cc3c(=O)oc4c(O)c(O)cc5c(=O)oc(c2O)c3c45)[C@H](O)[C@H](OC(=O)c2cc(O)c(O)c(O)c2)[C@H]1OC(=O)c1cc(O)c(O)c(O)c1 | cell growth or viability, MTT | 48 h | > 100 µg/mL |
| C[C@H]1C(OCCCC[P+](c2ccccc2)(c2ccccc2)c2ccccc2)O[C@@H]2O[C@@]3(C)CCC4[C@H](C)CCC1[C@]42OO3 (stereo partly drawn) | cell growth or viability, MTT | 72 h | 0.223 µM |
| O=C(O)c1ccc([PH]([Au][Cl])(c2ccccc2)c2ccccc2)cc1 | cell growth or viability, resazurin | 72 h | 24.9 µM |
| C[C@H]1C(OCCCCCCCC[P+](c2ccccc2)(c2ccccc2)c2ccccc2)O[C@@H]2O[C@@]3(C)CCC4[C@H](C)CCC1[C@]42OO3 (stereo partly drawn) | cell growth or viability, MTT | 72 h | 0.126 µM |
| CCN1CC2(COC)CCC(OC)C34C5CC6C(OC)CC(O)(C(CC23)C14)C5C6OC(=O)c1ccccc1 (stereo not drawn) | cell growth or viability, MTT |  | 25.4 µM |

Some of these lines once more:
| Structure (SMILES) | assay | conditions | IC50 |
| --- | --- | --- | --- |
| CC(C)=CCC[C@@](C)(O)[C@H]1CC[C@]2(C)[C@@H]1CC[C@@H]1[C@@]3(C)CCC(=O)C(C)(C)[C@@H]3CC[C@]12C | cell growth or viability, SRB |  | 47.8 µM |
| COCC12CN(C)C3C4C(OC)C1C3(C(OC)CC2O)C1CC2(O)C(OC)C(O)C4(OC(C)=O)C1C2OC(=O)c1ccccc1 (stereo not drawn) | cell growth or viability, MTT |  | 13 µM |
| C[C@H]1O[C@@H](O[C@H]2CC[C@@]3(C)[C@H](CC[C@@H]4[C@@H]3C[C@@H](O)[C@]3(C)[C@@H](C5=CC(=O)OC5)CC[C@]43O)C2)C[C@H](O)[C@@H]1O[C@@H]1O[C@H](CO)[C@@H](O)[C@H](O)[C@H]1O | cell growth or viability, MTT | 48 h | 0.15 µM |
